Assay results pooled from the literature.
Each line is one published result; not all experiments were run side by side. Numbers after ± are the reported error.

Compound | test | system | setting | scale | quantity | value
CN1CCN(C2=Nc3cc(Cl)ccc3Nc3ccccc32)CC1 | rapid equilibrium dialysis | human, 10% plasma | 2 µM, 24 h, pH 7.4 | – | fraction unbound | 0.0525
NC[C@@]1(CC(=O)O)[C@@H]2CC[C@H]3C[C@@H]2[C@@H]1C3 | – | human, moderate renal impairment, urine | oral, 20 mg single dose, 0-72 h | – | fraction excreted in urine | 70.7%
Cc1cc(-c2nccc3c2ccn3CC(=O)Nc2ccc(-c3cnccn3)cn2)ccn1 | – | human, urine | oral, 20 mg single dose, geometric mean | – | fraction excreted in urine | 1.21%
NCCONC(=O)[C@@H]1CC[C@@H]2CN1C(=O)N2OS(=O)(=O)O | – | human male, urine | intravenous infusion, 2 g multiple doses, day 9 | – | fraction excreted in urine (0-8 h) | 81.1%
Cn1cc(-c2cn3nccc3c(-c3cnn([C@]4(CC#N)C[C@@H](C#N)C4)c3)n2)cn1 | – | healthy humans, urine | oral, 200 mg twice daily, day 10, dosing interval | – | fraction excreted unchanged in urine | 1.3%
CC(C)n1c(C2CCNCC2)nc2c([N+](=O)[O-])c(Br)c(Br)cc21 | – | human, urine | oral, 100 mg, median, single dose | – | fraction excreted in urine | 0.01
C[C@@H](N)c1cc(Cl)ccc1Cn1c(=S)[nH]c(=O)c2[nH]ccc21 | – | human severe renal impairment, urine | oral, 2.5 mg single dose, 0-24 h | baseline: dose | fraction excreted unchanged | 21.2%
CN[C@@H]1COc2c(S(=O)(=O)NC(=O)Nc3c4c(cc5c3CCC5)CCC4)cnn2C1 | – | human, urine | oral, 900 mg twice daily, 0-12 h, day 7 | – | fraction excreted in urine | 0.123
OCc1cc(C(O)CNCCCCCCOCCCCc2ccccc2)ccc1O (centres unmarked) | equilibrium dialysis | human, plasma | – | – | fraction unbound | 0.066
CC(C)(Sc1ccncc1-c1ccc(C#N)c2ccccc12)C(=O)O | – | human, urine | oral, 2.5 mg, with: febuxostat 20 mg | – | fraction excreted in urine (0-24 h) | 1.37%
COc1ccc(F)cc1C(=O)NCc1ccc(-c2nn([C@@H](C)C(F)(F)F)c(N)c2C(N)=O)cc1 | – | human male, urine and feces | oral, 200 mg, mass balance | – | fraction metabolised by UGT | 0.23
CCn1c(=O)c2c(nc(/C=C/c3ccc(OC)c(OC)c3)n2C)n(CC)c1=O | estimated from MDCK Papp | MDCK knock-out, human | 1 µM, 90 min | – | fraction absorbed | 100%
CN(C(=O)C(C)(C)c1cc(C(F)(F)F)cc(C(F)(F)F)c1)c1cnc(N2C[C@H]3COCCN3C[C@H]2CO)cc1-c1ccc(F)cc1[14CH3] | LC-MS/MS, AUC-based, measured: unchanged compound | human, male, plasma | oral, 120 mg | – | fraction of total radioactivity | 31%
CC(C)OC(=O)[C@@H](C)N[P@@](=O)(OC[C@H]1O[C@@H](n2ccc(=O)[nH]c2=O)[C@](C)(Cl)[C@@H]1O)Oc1ccccc1 | – | human | – | – | fraction escaping hepatic clearance | 0.649
Cl.[2H]C([2H])([2H])CC(=O)c1cnc(NC(=O)C2CC2)cc1Nc1cccc(-c2ncn(C([2H])([2H])[2H])n2)c1OC | – | human, urine | oral, 60 mg once daily, nonfasted, multiple doses, mean | – | fraction excreted unchanged | 0.43%
C=CC(=O)Nc1cc(Nc2ncc(C(=O)OC(C)C)c(-c3cn(C)c4ccccc34)n2)c(OC)cc1N(C)CCN(C)C | – | healthy human, urine | oral, 120 mg single dose, arithmetic mean | – | fraction of dose excreted | 0.69%
O=C(c1nc2n(n1)[C@H](c1ccccc1)C[C@@H]2F)C1CC1 | – | human | 150 mg single dose | – | fraction excreted in urine 0-72 h | 0.1 to 0.2%
CCc1cc2c(cc1CC)CC(NC[C@H](O)c1ccc(O)c3[nH]c(=O)ccc13)C2 | equilibrium dialysis | human, plasma | – | – | fraction unbound | 0.051
CC(=O)N(C)[C@H]1CCN(C(=O)c2cnc3c(c2)C[C@](C)(c2ccc(F)cc2)N3)C1 | – | healthy male human, urine | oral, 30 mg once daily, 0-48 h steady state, geometric mean | – | fraction excreted in urine | 56.5%
COc1cc(C(=O)NC2CCN(C)CC2)c(F)cc1Nc1ncc(C(F)(F)F)c(Oc2cccc3c2C(=O)N(C)C3)n1 | – | healthy Japanese humans, urine | oral, 200 mg once daily, multiple doses, 0-24 h, geometric mean | – | fraction excreted in urine, steady state | 8.5%
C[C@@H](Oc1ccc(S(C)(=O)=O)cc1C(=O)N1C[C@@H]2C[C@]2(c2cc(C(F)(F)F)on2)C1)C(F)(F)F | – | elderly humans, urine | oral, 50 mg once daily, 0-24 h, single dose, geometric mean | – | fraction excreted in urine | 2.13%
CNC(=O)c1ccc(-c2cnc3ncc(Cc4ccc5ncccc5c4)n3n2)cc1F | ultrafiltration | human mild hepatic function, plasma | oral, 200 mg, 3 h post-dose, mean | – | fraction unbound | 0.0318
CC(=O)C(C)n1ncn(-c2ccc(N3CCN(c4ccc(OC[C@H]5CO[C@](Cn6cncn6)(c6ccc(Cl)cc6Cl)O5)cc4)CC3)cc2)c1=O (some centres unmarked) | – | human | – | – | fraction unbound | 0.007 ± 0.003

Repeated from above:
Compound | test | system | setting | scale | quantity | value
C[C@@H](Oc1ccc(S(C)(=O)=O)cc1C(=O)N1C[C@@H]2C[C@]2(c2cc(C(F)(F)F)on2)C1)C(F)(F)F | – | elderly humans, urine | oral, 50 mg once daily, 0-24 h, single dose, geometric mean | – | fraction excreted in urine | 2.13%
CNC(=O)c1ccc(-c2cnc3ncc(Cc4ccc5ncccc5c4)n3n2)cc1F | ultrafiltration | human mild hepatic function, plasma | oral, 200 mg, 3 h post-dose, mean | – | fraction unbound | 0.0318
CC(=O)C(C)n1ncn(-c2ccc(N3CCN(c4ccc(OC[C@H]5CO[C@](Cn6cncn6)(c6ccc(Cl)cc6Cl)O5)cc4)CC3)cc2)c1=O (some centres unmarked) | – | human | – | – | fraction unbound | 0.007 ± 0.003
